Published values from different studies.
“And” joins repeats or separate records; there may be more than shown. ± marks the error that the study gave.
rep main protease: Replicase polyprotein 1ab, main protease (rep, Severe acute respiratory syndrome coronavirus 2, UniProt P0DTD1)
rep methyltransferase: Replicase polyprotein 1ab, methyltransferase (rep, Severe acute respiratory syndrome coronavirus 2, UniProt P0DTD1)
rep papain-like protease: Replicase polyprotein 1ab, papain-like protease (rep, Severe acute respiratory syndrome coronavirus 2, UniProt P0DTD1)
rep nsp16 with nsp10: Replicase polyprotein 1ab, nsp16 with nsp10 (rep, Severe acute respiratory syndrome coronavirus 2, UniProt P0DTD1)
rep nsp13 helicase: Replicase polyprotein 1ab, nsp13 helicase (rep, Severe acute respiratory syndrome coronavirus 2, UniProt P0DTD1)

CCc1ccccc1NC(=S)N/N=C/c1ccc(O)cc1 — IC50 (rep main protease; enzyme activity, inhibitor, FRET): 19.1 µM
O=C(NCCc1cccc(F)c1)[C@@H](c1cncnc1)N(C(=O)[C@@H](F)Cl)c1ccc(S(F)(F)(F)(F)F)cc1 — IC50 (rep main protease; enzyme activity, inhibitor): 10.6 µM
CCOC(=O)ONC(=O)/C=C\c1ccc(Cl)cc1Cl — IC50 (rep main protease; enzyme activity, inhibitor, FRET): 0.42 µM
O=c1c2cccc([N+](=O)[O-])c2[se]n1-c1ccccc1 — IC50 (rep main protease; enzyme activity, inhibitor, FRET): 0.74 µM
CCCCCC/C=C\CCCCCCC[C@@H](O)Cc1cc(O)cc(O)c1 — IC50 (rep main protease; enzyme activity, inhibitor; with preincubation): > 100 µM
COc1ccc2c(c1)C(=O)C(=O)N2Cc1cn(CC(=O)Nc2ccc(S(N)(=O)=O)cc2)nn1 — IC50 (rep main protease; enzyme activity, inhibitor): 0.939 µM
CCC1c2ccsc2CCN1C(=O)Cn1cc(CC2NC(=O)NC2=O)nn1 (centres unmarked) — IC50 (rep main protease; enzyme activity, inhibitor): > 100 µM
O=C(O[C@@H]1Cc2c(O)cc(O)cc2O[C@H]1c1ccc(O)c(O)c1)c1cc(O)c(O)c(O)c1 — IC50 (rep methyltransferase; enzyme activity, inhibitor; pH 7.5): 17.3 µM
CCCCc1ccc(NC(=S)N/N=C/c2ccccc2O)cc1 — IC50 (rep main protease; enzyme activity, inhibitor, FRET): 4.37 µM
CN(C)CCNC(=O)C[C@H](Cc1ccc(F)cc1)NC(=O)[C@@H](Cc1ccc(Cl)cc1Cl)NC(=O)[C@H](N)Cc1ccccc1C#N — IC50 (rep main protease; enzyme activity, inhibitor, fluorescence): 0.07 µM
CC[C@@H](C)[C@H](NC(=O)c1ccccc1[Se][Se]c1ccccc1C(=O)N[C@H](C(=O)OC)[C@H](C)CC)C(=O)OC — IC50 (rep main protease; enzyme activity, inhibitor): 1.26 µM
CCC(C(=O)Nc1ccccc1OC)n1cccc2nc(SCc3ccc(F)cc3)nc1-2 (centres unmarked) — IC50 (rep papain-like protease; enzyme activity, inhibitor): 8.15 µM
N#CC(CC1CCCNC1=O)NC(=O)C(CC1CC1)NC(=O)c1cc2cc(F)cc(F)c2[nH]1 (centres unmarked) — IC50 (rep main protease; enzyme activity, inhibitor): 0.007 µM
O=C(/C=C/c1ccc(O)cc1)O[C@@H]1Cc2c(O)cc(O)cc2O[C@@H]1c1ccc(O)c(O)c1 — IC50 (rep main protease; enzyme activity, inhibitor, FRET): 211 µM
COc1ccc(-c2noc(CNC(=O)C3C(C)=C3c3ccccc3)n2)cc1 (centres unmarked) — IC50 (rep main protease; enzyme activity, inhibitor, FRET): 39.3 µM
CNC(=O)C[C@H](Cc1ccc(F)cc1)NC(=O)[C@@H](Cc1ccc(Cl)cc1Cl)NC(=O)[C@@H](N)C[C@H]1CCNC1=O — IC50 (rep main protease; enzyme activity, inhibitor, fluorescence): > 50 µM
Nc1ncnc2c1ncn2[C@@H]1O[C@H](CSCc2ccc(Cl)c(C(=O)O)c2)[C@@H](O)[C@H]1O — IC50 (rep nsp16 with nsp10; methyltransferase activity, inhibitor; 30 min, 30 °C, together with: SAM 10 µM): 0.025 µM
O=C1C[C@@H](c2ccc(O)c(O)c2)Oc2cc(O)cc(O)c21 — IC50 (rep main protease; inhibitor): 17.6 ± 0.9 µM
O=C(/C=C/c1ccc(O)c2oc(-c3ccc(O)c(O)c3)cc12)O[C@H](Cc1ccc(O)c(O)c1)C(=O)O — IC50 (rep papain-like protease; enzyme activity, inhibitor, fluorescence): < 100 µM
CC(NC(=O)c1ccccc1[Se][Se]c1ccccc1C(=O)NC(C)C(=O)O)C(=O)O (centres unmarked) — IC50 (rep main protease; enzyme activity, inhibitor): 5.44 µM
COC(=O)C(NC(=O)CC(O)C(N)Cc1ccccc1)C(C)C (centres unmarked) — IC50 (rep papain-like protease; enzyme activity, inhibitor, FRET): 1.46 µM
COc1ccc(-c2cc(=O)c3c(O)cc(O)c(-c4cc(-c5cc(=O)c6c(O)cc(OC)cc6o5)ccc4OC)c3o2)cc1 — IC50 (rep papain-like protease; enzyme activity, inhibitor, fluorescence; pH 8): 34.8 to 36.4 µM and 34.8 µM
CC[C@@H](C)[C@H](NC(=O)c1ccccc1[Se][Se]c1ccccc1C(=O)N[C@H](C(=O)O)[C@H](C)CC)C(=O)O — IC50 (rep main protease; enzyme activity, inhibitor): 5.14 µM
C[n+]1ccc(C(=O)NCc2ccccc2)c(O)c1 — IC50 (Replicase polyprotein 1ab, nsp12 with nsp7/nsp8 (rep, Severe acute respiratory syndrome coronavirus 2, UniProt P0DTD1); RNA synthesis, inhibitor; 30 min): 2000 to 3000 µM
Cc1ccc(OCCN(C)C)cc1C(=O)N[C@H](C)c1cc(-c2cccs2)cc(-c2ccc(CN)s2)c1 — IC50 (rep papain-like protease; enzyme activity, inhibitor, FRET): 0.0909 µM
NC(=O)CCC1CCCN(C(=O)c2c[nH]n3c2nc(=O)c2ccccc23)C1 (centres unmarked) — IC50 (rep main protease; enzyme activity, inhibitor): 21.3 µM
CCC(C(=O)Nn1cccc1)n1cc(F)cc2nc(SCc3ccc(F)cc3)nc1-2 (centres unmarked) — IC50 (rep papain-like protease; enzyme activity, inhibitor): 8.77 µM
C[C@@H]1O[C@@H](Oc2cc3c(=O)oc4c(O)c(O)cc5c(=O)oc(c2O)c3c45)[C@H](O)[C@H](OC(=O)c2cc(O)c(O)c(O)c2)[C@H]1OC(=O)c1cc(O)c(O)c(O)c1 — IC50 (rep main protease; enzyme activity, inhibitor): 26.7 µM
O=C(c1ccc([N+](=O)[O-])c(-n2ccnc2)c1)N(c1cccc(Cl)c1)c1nc2ccccc2s1 — IC50 (rep main protease; enzyme activity, inhibitor, FRET): 74 µM
CC(C)(C)c1ccc(N(C(=O)C(F)Cl)C(C(=O)NCCc2cccc(F)c2)c2cncnc2)cc1 (centres unmarked) — IC50 (rep main protease; enzyme activity, inhibitor): 0.25 µM
C[C@](C(=O)NC1CCC(F)(F)CC1)(c1cncnc1)N(C(=O)[C@H](F)Cl)c1ccc(OC(F)(F)F)cc1 — IC50 (rep main protease; enzyme activity, inhibitor): 0.016 µM
Cc1cc(C(=O)O)ccc1C1=NN(c2ccc(C#N)c(Cl)c2)C(C)C1 (centres unmarked) — IC50 (rep methyltransferase; enzyme activity, inhibitor): 1.53 µM
N#Cc1cn([C@@H]2O[C@H](CSCC[C@H](N)C(=O)O)[C@@H](O)[C@H]2O)c2ncnc(N)c12 — IC50 (rep nsp16 with nsp10; nsp10–nsp16 methyltransferase activity, inhibitor, radiometric; SARS-CoV-2; together with: 1.7 µM 3H-SAM, 0.8 µM biotinylated RNA): 1.2 ± 0.4 µM
C=CC(=O)N1CCN(c2cc(-c3ccc(C4CCC4)cc3)ncc2C(=O)N[C@H](Cc2ccccc2)C(=O)NC)C(C)C1 (some centres unmarked) — IC50 (rep main protease): > 100 µM
O=C(c1ccc(Br)cc1)N1CCC(c2ccn3ncc(C(=O)N4CCCCC4)c3c2)CC1 — IC50 (Replicase polyprotein 1ab, nsp3 macrodomain (rep, Severe acute respiratory syndrome coronavirus 2, UniProt P0DTD1); ADP-ribose binding, inhibitor, fluorescence polarization; Mac1 domain, SARS-CoV-2): 27.6 ± 11.1 µM
CC(=O)N[C@@H](Cc1ccc(O)cc1)C(=O)N[C@@H](CC(=O)O)C(=O)NCCC(=O)N[C@@H](Cc1ccccc1)C(=O)N[C@@H](Cc1ccc(O)cc1)C(=O)NCCC(=O)N[C@@H](Cc1ccc(O)cc1)C(=O)N[C@H](C(=O)N[C@H](C(=O)N[C@@H](Cc1ccccc1)C(=O)N[C@@H](Cc1c[nH]cn1)C(=O)N[C@H](C(=O)N[C@@H](C)C(=O)N[C@H](C(N)=O)[C@@H](C)O)C(C)C)[C@@H](C)O)C(C)C — IC50 (rep main protease; enzyme activity, inhibitor): 0.77 µM
Cc1ccc(OCCN(C)C)cc1C(=O)N[C@H](C)c1cc(-c2cnn(C)c2)cc(-c2cnn(CCN3CCOCC3)c2)c1 — IC50 (rep papain-like protease; enzyme activity, inhibitor, FRET): 0.0988 µM
CNC(=O)C[C@H](Cc1ccc(F)cc1)NC(=O)[C@@H](Cc1ccc(Cl)cc1Cl)NC(=O)[C@H](N)Cc1ccccc1[N+](=O)[O-] — IC50 (rep main protease; enzyme activity, inhibitor, fluorescence): 4 µM
O=C(O)CC[C@H](NC(=O)c1ccccc1[Se][Se]c1ccccc1C(=O)N[C@@H](CCC(=O)O)C(=O)O)C(=O)O — IC50 (rep main protease; enzyme activity, inhibitor): > 10 µM
O=C1CC(c2ccccc2)Oc2cc(O[C@@H]3O[C@H](CO)[C@@H](O)[C@H](O)[C@H]3O)ccc21 (some centres unmarked) — IC50 (rep nsp13 helicase; helicase unwinding activity): 2.88 µM and 2.8 µM
O=c1c2ccccc2sn1-c1ccccc1 — IC50 (rep main protease; enzyme activity, inhibitor; 60 min preincubation): 0.25 ± 0.04 µM
CN(C)CCCCNC(=O)C[C@H](Cc1ccccc1)NC(=O)[C@@H](Cc1ccc(Cl)cc1Cl)NC(=O)[C@H](N)Cc1ccccc1C#N — IC50 (rep main protease; enzyme activity, inhibitor, fluorescence): 0.03 µM
Cc1ccccc1[C@@H](C)N(C)Cc1cc(O)ccc1Cl — IC50 (rep papain-like protease; enzyme activity, inhibitor, fluorescence): 8.19 µM
Cn1cc(C(=O)Nc2ccccn2)c2ccccc21 — IC50 (rep main protease; enzyme activity, inhibitor, FRET): 2.18 µM
CN(C)CCCCNC(=O)C[C@H](Cc1ccc(F)cc1)NC(=O)[C@@H](Cc1ccc(Cl)cc1Cl)NC(=O)[C@H](N)Cc1ccccc1C#N — IC50 (rep main protease; enzyme activity, inhibitor, fluorescence): 0.01 µM
O=C(c1cccc(-n2cccc2)c1)N1CCCN(S(=O)(=O)c2ccc(F)cc2)CC1 — IC50 (rep main protease; enzyme activity, inhibitor): > 100 µM
COc1cc(/C=C/C(=O)O)ccc1O — IC50 (rep nsp13 helicase; ATPase activity; no nucleic acid): > 30 µM
